Measured values collected from several papers.
Each numbered part is a random draw from the data of one study; scales do not carry over between parts. Several values in a cell are separate wells, animals, samples, runs or records.
UniProt O14757, sequence (whole entry, looked up): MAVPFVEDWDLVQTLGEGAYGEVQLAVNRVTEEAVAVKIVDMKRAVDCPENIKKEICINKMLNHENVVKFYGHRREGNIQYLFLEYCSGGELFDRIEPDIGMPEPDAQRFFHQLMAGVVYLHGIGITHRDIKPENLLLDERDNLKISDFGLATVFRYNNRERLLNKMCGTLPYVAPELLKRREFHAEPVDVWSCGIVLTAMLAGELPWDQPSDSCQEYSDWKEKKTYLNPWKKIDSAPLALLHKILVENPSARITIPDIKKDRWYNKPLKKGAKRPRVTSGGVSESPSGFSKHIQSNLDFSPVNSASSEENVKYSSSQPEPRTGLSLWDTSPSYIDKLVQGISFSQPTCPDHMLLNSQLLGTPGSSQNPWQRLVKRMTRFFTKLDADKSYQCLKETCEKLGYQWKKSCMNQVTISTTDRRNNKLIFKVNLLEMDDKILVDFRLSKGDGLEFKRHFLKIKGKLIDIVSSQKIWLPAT
UniProt P48730, sequence (whole entry, looked up): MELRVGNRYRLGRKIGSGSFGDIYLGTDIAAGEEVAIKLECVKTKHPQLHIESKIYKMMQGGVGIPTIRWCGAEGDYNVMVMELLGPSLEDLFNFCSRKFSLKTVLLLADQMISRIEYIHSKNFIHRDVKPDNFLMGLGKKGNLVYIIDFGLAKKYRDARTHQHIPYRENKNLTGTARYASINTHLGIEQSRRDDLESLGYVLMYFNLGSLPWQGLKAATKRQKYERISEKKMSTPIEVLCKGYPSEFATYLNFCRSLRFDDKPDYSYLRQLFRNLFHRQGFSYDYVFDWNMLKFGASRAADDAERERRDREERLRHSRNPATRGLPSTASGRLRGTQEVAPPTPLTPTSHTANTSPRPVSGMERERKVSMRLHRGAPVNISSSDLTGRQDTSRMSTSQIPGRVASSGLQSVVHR
UniProt O43683, sequence (whole entry, looked up): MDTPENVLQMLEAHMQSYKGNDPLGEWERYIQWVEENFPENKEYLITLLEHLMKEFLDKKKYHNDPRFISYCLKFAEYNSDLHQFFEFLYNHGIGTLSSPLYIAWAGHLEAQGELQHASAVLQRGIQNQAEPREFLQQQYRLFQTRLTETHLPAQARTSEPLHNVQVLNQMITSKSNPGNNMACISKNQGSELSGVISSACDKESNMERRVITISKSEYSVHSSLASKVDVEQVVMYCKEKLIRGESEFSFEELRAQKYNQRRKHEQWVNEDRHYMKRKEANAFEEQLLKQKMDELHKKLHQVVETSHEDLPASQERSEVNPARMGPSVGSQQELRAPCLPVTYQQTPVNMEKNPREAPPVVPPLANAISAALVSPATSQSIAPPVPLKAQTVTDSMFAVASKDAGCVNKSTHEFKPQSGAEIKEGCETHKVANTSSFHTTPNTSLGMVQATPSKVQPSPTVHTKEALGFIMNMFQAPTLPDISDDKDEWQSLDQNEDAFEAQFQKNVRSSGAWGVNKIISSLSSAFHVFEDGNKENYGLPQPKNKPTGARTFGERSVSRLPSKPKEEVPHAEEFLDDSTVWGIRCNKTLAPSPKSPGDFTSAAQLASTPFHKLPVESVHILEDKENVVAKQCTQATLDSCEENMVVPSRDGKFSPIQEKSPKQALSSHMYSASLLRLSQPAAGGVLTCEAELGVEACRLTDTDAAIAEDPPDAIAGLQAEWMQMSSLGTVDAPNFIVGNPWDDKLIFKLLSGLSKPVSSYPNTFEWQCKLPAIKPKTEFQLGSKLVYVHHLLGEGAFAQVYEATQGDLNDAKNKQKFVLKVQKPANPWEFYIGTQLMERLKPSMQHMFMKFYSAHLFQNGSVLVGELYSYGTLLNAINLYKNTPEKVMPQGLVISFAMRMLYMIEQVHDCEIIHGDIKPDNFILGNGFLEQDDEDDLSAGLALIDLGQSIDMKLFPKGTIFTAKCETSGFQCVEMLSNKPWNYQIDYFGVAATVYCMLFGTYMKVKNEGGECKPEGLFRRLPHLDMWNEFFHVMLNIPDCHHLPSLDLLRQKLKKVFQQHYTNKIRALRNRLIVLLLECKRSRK
UniProt P49841, sequence (whole entry, looked up): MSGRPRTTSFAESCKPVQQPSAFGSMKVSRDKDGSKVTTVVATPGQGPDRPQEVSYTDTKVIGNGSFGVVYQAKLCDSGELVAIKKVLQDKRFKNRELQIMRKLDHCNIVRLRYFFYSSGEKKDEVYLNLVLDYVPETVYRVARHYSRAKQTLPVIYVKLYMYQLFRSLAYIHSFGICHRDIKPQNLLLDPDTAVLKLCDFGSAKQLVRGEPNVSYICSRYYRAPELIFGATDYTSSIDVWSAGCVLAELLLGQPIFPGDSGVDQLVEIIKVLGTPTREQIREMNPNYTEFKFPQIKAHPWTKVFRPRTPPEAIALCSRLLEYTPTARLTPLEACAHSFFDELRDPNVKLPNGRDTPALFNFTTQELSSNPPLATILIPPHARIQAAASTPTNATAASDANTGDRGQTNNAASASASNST
UniProt Q9P0L2, sequence (whole entry, looked up): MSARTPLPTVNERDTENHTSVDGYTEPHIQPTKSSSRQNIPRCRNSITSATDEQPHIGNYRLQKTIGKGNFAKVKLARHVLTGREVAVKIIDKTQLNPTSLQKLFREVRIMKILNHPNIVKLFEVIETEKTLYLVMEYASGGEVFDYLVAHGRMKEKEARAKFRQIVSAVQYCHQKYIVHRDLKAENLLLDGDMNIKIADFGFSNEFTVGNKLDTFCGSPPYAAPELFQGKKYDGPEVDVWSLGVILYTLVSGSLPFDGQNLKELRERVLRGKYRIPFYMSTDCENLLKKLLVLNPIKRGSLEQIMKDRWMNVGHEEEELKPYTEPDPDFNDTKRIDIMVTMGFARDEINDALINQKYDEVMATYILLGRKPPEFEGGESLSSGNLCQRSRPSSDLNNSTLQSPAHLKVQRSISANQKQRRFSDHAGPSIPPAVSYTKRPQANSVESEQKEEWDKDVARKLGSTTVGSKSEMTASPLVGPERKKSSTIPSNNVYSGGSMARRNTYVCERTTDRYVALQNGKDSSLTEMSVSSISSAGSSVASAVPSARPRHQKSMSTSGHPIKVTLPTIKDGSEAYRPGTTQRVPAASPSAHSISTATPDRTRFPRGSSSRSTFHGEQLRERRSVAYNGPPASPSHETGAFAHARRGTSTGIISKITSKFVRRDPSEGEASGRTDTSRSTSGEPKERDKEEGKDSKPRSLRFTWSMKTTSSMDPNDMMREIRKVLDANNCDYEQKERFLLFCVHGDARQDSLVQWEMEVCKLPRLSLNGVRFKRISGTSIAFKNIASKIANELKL
UniProt P31749, sequence (whole entry, looked up): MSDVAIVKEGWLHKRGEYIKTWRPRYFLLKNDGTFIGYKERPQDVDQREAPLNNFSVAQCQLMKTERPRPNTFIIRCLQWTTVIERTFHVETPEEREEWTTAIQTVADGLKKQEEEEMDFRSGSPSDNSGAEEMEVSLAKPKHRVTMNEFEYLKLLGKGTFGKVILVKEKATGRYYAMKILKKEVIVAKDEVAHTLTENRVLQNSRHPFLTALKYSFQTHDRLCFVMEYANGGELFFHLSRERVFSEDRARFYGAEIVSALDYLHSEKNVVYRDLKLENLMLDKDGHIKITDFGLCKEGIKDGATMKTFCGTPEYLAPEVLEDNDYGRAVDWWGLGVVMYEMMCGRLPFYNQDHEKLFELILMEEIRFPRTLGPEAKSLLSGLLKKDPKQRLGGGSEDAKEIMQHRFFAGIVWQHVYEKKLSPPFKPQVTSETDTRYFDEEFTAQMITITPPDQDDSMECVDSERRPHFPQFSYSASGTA
UniProt P27037, sequence (whole entry, looked up): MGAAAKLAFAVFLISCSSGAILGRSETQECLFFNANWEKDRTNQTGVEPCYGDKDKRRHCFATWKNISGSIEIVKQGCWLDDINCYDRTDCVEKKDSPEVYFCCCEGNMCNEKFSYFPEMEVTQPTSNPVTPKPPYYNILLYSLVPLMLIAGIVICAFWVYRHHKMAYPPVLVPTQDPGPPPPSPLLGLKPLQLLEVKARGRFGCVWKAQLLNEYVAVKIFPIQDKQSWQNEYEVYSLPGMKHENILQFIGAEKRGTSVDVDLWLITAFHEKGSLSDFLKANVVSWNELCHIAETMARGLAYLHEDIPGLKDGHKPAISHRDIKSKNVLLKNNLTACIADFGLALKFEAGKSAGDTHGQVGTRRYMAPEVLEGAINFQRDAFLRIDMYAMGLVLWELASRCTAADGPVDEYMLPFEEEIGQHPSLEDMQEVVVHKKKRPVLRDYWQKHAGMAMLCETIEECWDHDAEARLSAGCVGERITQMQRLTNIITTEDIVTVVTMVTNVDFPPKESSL
UniProt P49137, sequence (whole entry, looked up): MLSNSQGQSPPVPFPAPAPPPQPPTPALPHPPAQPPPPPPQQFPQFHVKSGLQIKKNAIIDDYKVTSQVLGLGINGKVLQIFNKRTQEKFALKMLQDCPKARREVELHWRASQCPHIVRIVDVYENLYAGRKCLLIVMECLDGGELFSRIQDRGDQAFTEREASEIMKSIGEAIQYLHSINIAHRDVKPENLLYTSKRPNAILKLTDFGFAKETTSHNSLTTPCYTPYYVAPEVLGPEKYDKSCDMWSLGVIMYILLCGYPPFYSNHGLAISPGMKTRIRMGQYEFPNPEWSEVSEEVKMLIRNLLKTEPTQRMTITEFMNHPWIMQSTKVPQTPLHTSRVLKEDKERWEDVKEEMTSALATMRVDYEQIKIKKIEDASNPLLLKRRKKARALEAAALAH
UniProt Q8IU85, sequence (whole entry, looked up): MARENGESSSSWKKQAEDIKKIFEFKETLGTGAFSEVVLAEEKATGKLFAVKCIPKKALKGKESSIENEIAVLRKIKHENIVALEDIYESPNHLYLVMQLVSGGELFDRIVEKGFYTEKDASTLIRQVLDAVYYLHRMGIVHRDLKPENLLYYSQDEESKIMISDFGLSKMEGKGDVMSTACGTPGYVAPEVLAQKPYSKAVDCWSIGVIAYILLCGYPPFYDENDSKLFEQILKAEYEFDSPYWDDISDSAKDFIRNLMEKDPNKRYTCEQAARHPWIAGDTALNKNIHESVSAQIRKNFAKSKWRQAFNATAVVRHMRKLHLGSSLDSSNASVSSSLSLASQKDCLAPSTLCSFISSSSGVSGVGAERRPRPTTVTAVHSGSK

Series 1
Host: human
Medium: microsomes or S9
Concentration: 2 µM
Time: 0.5 h
Quantity: remaining compound
SMILES = Cn1nc(C2CCCN2C(=O)COc2ccc(F)cc2)c2c1CCOC2 (stereo not shown); result = 65.8%
SMILES = O=c1c(Br)c(Br)cnn1CCn1ncc(Br)c(Br)c1=O; result = 66.1%
SMILES = Fc1ccc(-c2cc3nc4c(c(NCC5CCCO5)n3n2)CCCC4)cc1 (stereo not shown); result = 9.12%
SMILES = CC(C)(C)c1ccc(Oc2ccc(N)c(Cl)c2)cc1; result = 76.4%
SMILES = O=S(=O)(c1cn[nH]c1)N1CCCC(c2cnccn2)C1 (stereo not shown); result = 59.5%
SMILES = Cc1sc(C(=O)O)cc1S(=O)(=O)N1CCCC2(CCS(=O)(=O)C2)C1 (stereo not shown); result = > 100%
SMILES = O=C(COc1ccc2c3ccccc3n(C(=O)c3cccc4ccccc34)c2c1)N1CCCC1; result = 2.3%
SMILES = O=C(NCc1cccnc1)c1c(OCC2CC2)cc(=O)n2c1CCOCC2; result = 84.9%
SMILES = COCCn1c(C)cc(C)c(C(=O)Nc2nc(COC)n[nH]2)c1=O; result = 88.3%

Series 2
Cell line: A-375
Concentration: 100 µM
Time: 36 h
Quantity: viability
SMILES = CCN1CCN(c2cc(-c3ccc(F)cc3)c3c(n2)CCCCCC3)CC1; result = -0.916%
SMILES = CN(C)CCN(Cc1ccc(Cl)cc1)c1ccccn1; result = 75.4%
SMILES = Nc1cccc2c1C(=O)N(C1CCC(=O)NC1=O)C2=O (stereo not shown); result = 101%
SMILES = [H]/N=C(/N)NS(=O)(=O)c1ccc(N)cc1; result = 118%
SMILES = Cc1[nH]c2ccccc2c1CCNCc1ccc(/C=C/C(=O)NO)cc1; result = 10.2%
SMILES = COc1ccc(-c2ccc3cc(C(=O)O)ccc3c2)cc1[C@]12C[C@H]3C[C@H](C[C@H](C3)C1)C2; result = 0.896%
SMILES = COc1cc2ccc(=O)oc2cc1OC; result = 110%
SMILES = O=C1CCCC(=O)C1C(=O)c1ccc(C(F)(F)F)cc1[N+](=O)[O-]; result = 104%
SMILES = Cc1c(N(C)CS(=O)(=O)O)c(=O)n(-c2ccccc2)n1C; result = 106% and 93.1%

Series 3
Compound: CCCOc1ccc([C@@H]2[C@@H](C(=O)O)[C@H](c3ccc4c(c3)OCO4)CN2CC(=O)Nc2c(CC)cccc2CC)cc1
Observed: cell-free assay
Technique: competition with immobilised ligand
Concentration: 1 µM
Quantity: remaining binding
target = AKT1 (Homo sapiens, UniProt P31749); result = 100%
target = PRKAA1 (Homo sapiens, UniProt Q13131); result = 96%
target = BUB1 (Homo sapiens, UniProt O43683); result = 92%
target = CHEK1 (Homo sapiens, UniProt O14757); result = 86%
target = TRPM6 (Homo sapiens, UniProt Q9BX84); result = 77%
target = CSNK1D (Homo sapiens, UniProt P48730); result = 83%
target = GSK3B (Homo sapiens, UniProt P49841); result = 100%
target = NEK1 (Homo sapiens, UniProt Q96PY6); result = 100%
target = ACVR2A (Homo sapiens, UniProt P27037); result = 100%
target = BLK (Homo sapiens, UniProt P51451); result = 96%
target = CAMK1D (Homo sapiens, UniProt Q8IU85); result = 97%
target = Tyrosine-protein kinase ABL1, phosphorylated (ABL1, Homo sapiens, UniProt P00519, M351T); result = 80%
target = MAPKAPK2 (Homo sapiens, UniProt P49137); result = 100%
target = FGFR3 (Homo sapiens, UniProt P22607, G697C); result = 99%
target = MARK1 (Homo sapiens, UniProt Q9P0L2); result = 100%

Further values, each from its own experiment
Compound = CCC[C@@H]1NC(=O)CSC[C@@H](C(=O)OCC)N(C)C(=O)[C@H](CC(C)C)NC(=O)[C@H](C)N(C)C(=O)[C@@H](CC(C)C)NC(=O)[C@H](C)N(C)C(=O)[C@H]2CCCN2C(=O)[C@H](CC(C)C)NC(=O)CN(CCC)C1=O; medium = hydrocarbon/water; quantity = logD; result = 0.862
